Assay results of several laboratories.
Each line is one published result; not all experiments were run side by side. Values joined by “and” are separate records of one study, mostly repeats; a detail may differ. Numbers after ± are the reported error.
Gria1/Gria2: Glutamate receptor AMPA 1/2 (Gria1/Gria2, Rattus norvegicus, UniProt P19490+P19491)
HDAC6: Protein deacetylase HDAC6 (HDAC6, Homo sapiens, UniProt Q9UBN7)
GBA1 R534H: Lysosomal acid glucosylceramidase (GBA1, Homo sapiens, UniProt P04062, R534H)
P4HB: Protein disulfide-isomerase (P4HB, Homo sapiens, UniProt P07237)
Fosb ΔFosB isoform, with JunD: Protein FosB, ΔFosB isoform, with JunD (Fosb, Mus musculus, UniProt P13346)
HDAC9: Histone deacetylase 9 (HDAC9, Homo sapiens, UniProt Q9UKV0)
PSMB8: Proteasome subunit beta type-8 (PSMB8, Homo sapiens, UniProt P28062)
IRAK4: Interleukin-1 receptor-associated kinase 4 (IRAK4, Homo sapiens, UniProt Q9NWZ3)

Structure (SMILES) | target | assay | test system | conditions | IC50
O=C(O)Cc1cc2c(cc1C(=O)c1ccccc1Cl)OCO2 | Gria1/Gria2 | ion current, antagonist, patch clamp |  |  | 4.37 µM
O=C(Cc1ccc(OCc2ccccc2)cc1)NC1(C(=O)O)CCN(C(=O)c2ccc(-c3cccc(Cl)c3)cc2)CC1 | Type-1 angiotensin II receptor (AGTR1, Homo sapiens, UniProt P30556) | reporter gene, antagonist, luciferase |  |  | > 10 µM
CC(C)(C)NC(=O)C1CCN(Cc2cccc(N=Nc3ccc(F)cc3)c2)CC1 | Atypical chemokine receptor 3 (ACKR3, Homo sapiens, UniProt P25106) | ligand displacement, BRET |  |  | 0.398 µM
CC(C)c1ccccc1OS(=O)(=O)Oc1cccc(C(=O)NO)c1 | HDAC6 | enzyme activity, inhibitor, fluorescence |  |  | 0.755 µM
CC(=O)N1CCC2(CC1)C(=O)N(CC(=O)Nc1ccccc1)CN2c1ccccc1 | Epithelial discoidin domain-containing receptor 1 (DDR1, Homo sapiens, UniProt Q08345) | ligand displacement |  |  | > 167 µM
OC[C@@H]1[C@@H](O)[C@H](O)[C@@H](O)CN1CCCCCCOCC12CC3CC(CC(C3)C1)C2 | GBA1 R534H | inhibitor, 4MU-β-D-glucopyranoside |  | added: 4MU-β-D-glucopyranoside | 0.1 µM
CCCOc1c(Br)cc(/C=C/C(=O)c2ccc3c(c2)OCCO3)cc1OC | P4HB | enzyme activity, inhibitor |  |  | > 100 µM
CC1=NN(c2ccc(Oc3ccccc3)c(S(=O)(=O)O)c2)C(=O)C1 | Fosb ΔFosB isoform, with JunD | ΔFosB/JunD binding to AP-1 DNA, inhibitor, fluorescence polarization |  | protein, full length 280 nM, no TCEP, added: 25 nM TMR-cdk5 oligonucleotide | 10 to 90 µM
COC(=O)Cc1cc2c(cc1C(=O)c1cccc(I)c1)OCO2 | Gria1/Gria2 | ion current, antagonist, patch clamp |  |  | 5.75 µM
CC(=O)N[C@@H](Cc1ccc([N+](=O)[O-])cc1)C(=O)N[C@@H]1CSSC[C@@H](C(=O)N[C@H](Cc2ccc(O)cc2)C(N)=O)NC(=O)[C@H]([C@@H](C)O)NC(=O)[C@H](CCCCN)NC(=O)[C@@H](Cc2c[nH]c3ccccc23)NC(=O)[C@H](Cc2ccc(O)cc2)NC1=O | Somatostatin receptor type 1 (SSTR1, Homo sapiens, UniProt P30872) | ligand displacement, radioligand |  |  | > 1 µM
CCCCc1nc2c([nH]1)[C@H](O)[C@@H](O)[C@H](O)[C@H]2O | bglA (Thermotoga maritima, UniProt Q08638) | enzyme activity, inhibitor |  | pH 6.8, with preincubation | > 100 µM
N#Cc1ccccc1-c1ccc(COCCCCCN2C[C@H](O)[C@@H](O)[C@H](O)[C@H]2CO)cc1 | GBA1 R534H | inhibitor, 4MU-β-D-glucopyranoside |  | added: 4MU-β-D-glucopyranoside | 0.6 µM
CC[C@H](C)C(=O)O[C@H]1C[C@@H](C)C=C2C=C[C@H](C)[C@H](CC[C@@H]3CC=CC(=O)O3)[C@H]21 | Cystic fibrosis transmembrane conductance regulator (CFTR, Homo sapiens, UniProt P13569) | ion current, inhibitor |  |  | 1.09 µM
Cc1ccc(C(=O)/C=C/c2ccc(OCC(=O)O)cc2)cc1C | P4HB | enzyme activity, inhibitor |  |  | 39 µM
CC(C)C[C@H](NC(=O)[C@H](Cc1ccc2ccccc2c1)NC(=O)[C@H](CCC(=O)O)NC(=O)c1cscn1)C(=O)NC1CC1c1ccccc1 (stereo partly drawn) | Adenomatous polyposis coli protein (APC, Homo sapiens, UniProt P25054) | ligand displacement, FP |  |  | 79 µM
OC[C@@H]1[C@@H](O)[C@H](O)[C@@H](O)CN1CCCCCOCc1ccc(-c2ccc(F)nc2)cc1 | GBA1 R534H | inhibitor, 4MU-β-D-glucopyranoside |  | added: 4MU-β-D-glucopyranoside | 3 µM
CC[C@H](C)[C@@H]1NC(=O)[C@H](Cc2ccccc2C(F)(F)F)NC(=O)CCSCc2cccc(n2)CSCCCNC(=O)[C@H](CCCCCC(=O)O)NC1=O | HDAC9 | enzyme activity, inhibitor, fluorogenic |  |  | > 30 µM
COC(=O)Cc1cc2c(cc1C(=O)c1ccc(Cl)cc1Cl)OCO2 | Gria1/Gria2 | ion current, patch clamp |  |  | 4.89 µM
CC(C)COCCCCCN1C[C@H](O)[C@@H](O)[C@H](O)[C@H]1CO | GBA1 R534H | inhibitor, 4MU-β-D-glucopyranoside |  | added: 4MU-β-D-glucopyranoside | 23 µM
CCOC(=O)C[C@@H](C#N)NC(=O)[C@@H]1CCCN1C(=O)[C@@H](NC(=O)c1ccc(N)c(Cl)c1)C(C)(C)C | Caspase-5 (CASP5, Homo sapiens, UniProt P51878) | enzyme activity, inhibitor |  |  | 0.359 µM
O=c1c(-c2cnn(-c3ccc(Cl)cc3)c2)c(C(F)(F)F)oc2c(O)c(O)ccc12 | Cullin-1, C-terminal domain with ROC1 (Homo sapiens, UniProt Q13616) | inhibitor, FRET |  | added: ROC1-CUL1 CTD | 5.93 µM
OC[C@@H]1[C@@H](O)[C@H](O)[C@@H](O)CN1CCCCCOCC1CCOCC1 | GBA1 R534H | inhibitor, 4MU-β-D-glucopyranoside |  | added: 4MU-β-D-glucopyranoside | 63 µM
COC1CCC(C[C@H](NC(=O)[C@H](CC(C)C)NC(=O)[C@H](Cc2ccc(CN)cc2)NC(=O)[C@H](Cc2ccccc2)N=[N+]=[N-])C(=O)[C@@]2(C)CO2)CC1 (stereo partly drawn) | PSMB8 | enzyme activity, inhibitor |  | lysate | > 10 µM
COC(C(N)=O)C(NC(=O)c1ccc(NC(=O)c2ccc(C#N)cc2)cc1)C(=O)Nc1ccc(C(=O)Nc2ccc(C(=O)Nc3ccc(C(=O)O)cc3)c(O)c2OC(C)C)cc1 (stereo not drawn) | DNA gyrase (gyrA/gyrB, Escherichia coli, UniProt P0AES4+P0AES6) | DNA supercoiling, inhibitor, gel-based |  |  | 0.448 µM
CCN(CC)CC(=O)Nc1cccc(-n2cc(-c3ccc4ccc(-c5cn(-c6cccc(NC(=O)CN(CC)CC)c6)nn5)cc4c3)nn2)c1 | Fibroblast growth factor receptor 1 (FGFR1, Homo sapiens, UniProt P11362) | enzyme activity, inhibitor |  |  | > 10 µM
CC(C)(C)n1ncc2c(=O)n(Cc3cccc(F)c3)c(NCc3ccc(F)cn3)nc21 | cGMP-inhibited 3',5'-cyclic phosphodiesterase 3A (PDE3A, Homo sapiens, UniProt Q14432) | enzyme activity, inhibitor |  |  | > 10 µM

Structure (SMILES) | target | assay | test system | conditions | IC50
CN(C)c1ccc(/C=C/C(=O)c2ccc(S(=O)(=O)N3CCCCCC3)cc2)cc1[N+](=O)[O-] | P4HB | enzyme activity, inhibitor |  |  | > 100 µM
CC(C)C[C@H](NC(=O)[C@H](Cc1ccc(CN)cc1)NC(=O)[C@H](Cc1ccccc1)N=[N+]=[N-])C(=O)N[C@H](C(=O)[C@@]1(C)CO1)C1CCCCC1 | PSMB8 | enzyme activity, inhibitor |  | lysate | > 10 µM
OCC1=C[C@@H](F)[C@H](O)[C@@H](O)[C@@H]1O | Lysosomal acid glucosylceramidase (GBA1, Homo sapiens, UniProt P04062) |  |  | added: resorufin β-glucoside at Km | 41 ± 15 µM
OC[C@H]1N[C@H](CCCCCOCC23CC4CC(CC(C4)C2)C3)[C@H](O)[C@@H](O)[C@@H]1O | GBA1 R534H | inhibitor, 4MU-β-D-glucopyranoside |  | added: 4MU-β-D-glucopyranoside | 0.07 µM
COC(=O)Cc1cc2c(cc1C(=O)c1ccccc1)OCO2 | Gria1/Gria2 | ion current, patch clamp |  |  | 6.08 µM
CCOc1cc(CN2CC3(CC(N4CCC(C(=O)O)CC4)=NO3)C2)cc(OCC)c1-c1ccc(F)cc1 | Somatostatin receptor type 5 (SSTR5, Homo sapiens, UniProt P35346, Y47A) | cAMP level, antagonist, GloSensor | AD293 | Y47A mutant, bandwidth 1.39, added: CST17 EC80 and forskolin | 43.7 µM
CN1CCCC1C(=O)NC(Cc1ccc(-n2cccn2)cc1)B(O)O (stereo not drawn) | PSMB6/PSMB7 (Homo sapiens, UniProt P28072+Q99436) | β1c caspase-like activity, inhibitor |  | constitutive proteasome, added: Z-LLE-AMC | > 10 µM
COc1cccc(-c2ccc(COCCCCCN3C[C@H](O)[C@@H](O)[C@H](O)[C@H]3CO)cc2)c1 | GBA1 R534H | inhibitor, 4MU-β-D-glucopyranoside |  | added: 4MU-β-D-glucopyranoside | 2.5 µM
C=CCSSC | uncharacterized protein (Bradysia odoriphaga, UniProt A0A2S0X9G4) | binding, competitive fluorescence displacement |  | pH 7.4 | 8 µM
CCN(CC)CCNc1ccc(CO)c2sc3ccccc3c(=O)c12 | WD repeat-containing protein 5 (WDR5, Homo sapiens, UniProt P61964) |  |  |  | ≤ 20 µM and 17.6 µM
N#Cc1c(-c2ccco2)cc(-c2cccs2)[nH]c1=O | Fosb ΔFosB isoform, with JunD | DNA binding, fluorescence polarization |  | added: 1 mM TCEP | 14.7 µM
Cc1cnc(Nc2ccc3c(c2)CCN(C(=O)/C=C/C(=O)c2ccc(Cl)cc2)C3)nc1-c1cnn(C(C)C)c1 | Tyrosine-protein kinase JAK3 (JAK3, Homo sapiens, UniProt P52333) | enzyme activity, inhibitor, ADP detection |  |  | > 0.03 µM
Cc1cc(NC2CCN(C)CC2)ccc1-c1cc2c(N3CCC[C@H](C(=O)NCc4ccc(OC(F)(F)F)cc4)C3)ncnc2[nH]1 | Cyclin-dependent kinase 6 (CDK6, Homo sapiens, UniProt Q00534) | enzyme activity, inhibitor, mobility shift |  |  | > 8 µM
COc1cc(C)ccc1C(=O)/C=C/c1ccc(OC)c(OC)c1OC | P4HB | enzyme activity, inhibitor |  |  | > 100 µM
Cc1nn(-c2cccc(N)c2)c(=O)c2cnc(Nc3ccc(N4CCNCC4)cc3)nc12 | Fibroblast growth factor receptor 3 (FGFR3, Homo sapiens, UniProt P22607) | enzyme activity, inhibitor |  |  | > 10 µM
O=C(CCc1ccc(CNC(C(=O)OC2CCCC2)C2CCCCC2)cn1)NO (stereo not drawn) | HDAC9 | enzyme activity, inhibitor |  |  | > 10 µM
OCc1cccc(Nc2ncc(Cl)c(Nc3ccccc3-c3nccs3)n2)c1 | IRAK4 | enzyme activity, inhibitor, radiometric |  |  | 0.00376 µM
O=C(O)c1cc(/C=C/C(=O)c2cc(Cl)ccc2O)c2c(c1)COCO2 | P4HB | enzyme activity, inhibitor |  |  | 79 µM
COCCN(C)CC(=O)NC(Cc1ccc(-c2ccccc2)cc1)B(O)O (stereo not drawn) | 20S proteasome, beta1 subunit (Plasmodium falciparum, UniProt Q8I0U7+Q8I6T3) | β1 activity, inhibitor |  | added: Ac-nLPnLD-AMC | > 10 µM
CC(C)(C)OC(=O)N1CCN(c2ccc3c(O)c(C(=O)NCc4ccc(C#N)nc4)ncc3n2)CC1 | Lysine-specific demethylase 6A (Homo sapiens, UniProt O15550) | enzyme activity, inhibitor, AlphaScreen |  |  | > 10 µM
COc1cncc(-c2ccc3[nH]c4ncnc(N[C@H]5CC[C@H](N6CCOCC6)CC5)c4c3c2)c1 | IRAK4 | enzyme activity, inhibitor, AlphaScreen |  | added: ATP 200 µM | 0.011 µM
COc1ccc(/C=C/C(=O)c2ccc(C#N)cc2)cc1 | P4HB | enzyme activity, inhibitor |  |  | > 100 µM
COC(=O)Cc1cc2c(cc1C(=O)c1ccccc1Br)OCO2 | Gria1/Gria2 | ion current, patch clamp |  |  | 5.48 µM
OC[C@H]1N[C@H](CCCCOCC23CC4CC(CC(C4)C2)C3)[C@H](O)[C@@H](O)[C@@H]1O | GBA1 R534H | inhibitor, 4MU-β-D-glucopyranoside |  | added: 4MU-β-D-glucopyranoside | 0.35 µM
CC(C)(C)c1cccc(OS(=O)(=O)Oc2cc(F)cc(C(=O)NO)c2)c1 | HDAC6 | enzyme activity, inhibitor, fluorescence |  |  | 0.696 µM

For quick reference, copied from above:
Structure (SMILES) | target | assay | test system | conditions | IC50
CC(C)c1ccccc1OS(=O)(=O)Oc1cccc(C(=O)NO)c1 | HDAC6 | enzyme activity, inhibitor, fluorescence |  |  | 0.755 µM
OC[C@@H]1[C@@H](O)[C@H](O)[C@@H](O)CN1CCCCCOCC1CCOCC1 | GBA1 R534H | inhibitor, 4MU-β-D-glucopyranoside |  | added: 4MU-β-D-glucopyranoside | 63 µM
COC1CCC(C[C@H](NC(=O)[C@H](CC(C)C)NC(=O)[C@H](Cc2ccc(CN)cc2)NC(=O)[C@H](Cc2ccccc2)N=[N+]=[N-])C(=O)[C@@]2(C)CO2)CC1 (stereo partly drawn) | PSMB8 | enzyme activity, inhibitor |  | lysate | > 10 µM
Cc1cc(NC2CCN(C)CC2)ccc1-c1cc2c(N3CCC[C@H](C(=O)NCc4ccc(OC(F)(F)F)cc4)C3)ncnc2[nH]1 | Cyclin-dependent kinase 6 (CDK6, Homo sapiens, UniProt Q00534) | enzyme activity, inhibitor, mobility shift |  |  | > 8 µM
CC(C)(C)NC(=O)C1CCN(Cc2cccc(N=Nc3ccc(F)cc3)c2)CC1 | Atypical chemokine receptor 3 (ACKR3, Homo sapiens, UniProt P25106) | ligand displacement, BRET |  |  | 0.398 µM
CCOc1cc(CN2CC3(CC(N4CCC(C(=O)O)CC4)=NO3)C2)cc(OCC)c1-c1ccc(F)cc1 | Somatostatin receptor type 5 (SSTR5, Homo sapiens, UniProt P35346, Y47A) | cAMP level, antagonist, GloSensor | AD293 | Y47A mutant, bandwidth 1.39, added: CST17 EC80 and forskolin | 43.7 µM
